Assay results collected from several papers.
Parts stem from different laboratories: compare values within a part only.
UniProt Q01959, sequence (whole entry, looked up): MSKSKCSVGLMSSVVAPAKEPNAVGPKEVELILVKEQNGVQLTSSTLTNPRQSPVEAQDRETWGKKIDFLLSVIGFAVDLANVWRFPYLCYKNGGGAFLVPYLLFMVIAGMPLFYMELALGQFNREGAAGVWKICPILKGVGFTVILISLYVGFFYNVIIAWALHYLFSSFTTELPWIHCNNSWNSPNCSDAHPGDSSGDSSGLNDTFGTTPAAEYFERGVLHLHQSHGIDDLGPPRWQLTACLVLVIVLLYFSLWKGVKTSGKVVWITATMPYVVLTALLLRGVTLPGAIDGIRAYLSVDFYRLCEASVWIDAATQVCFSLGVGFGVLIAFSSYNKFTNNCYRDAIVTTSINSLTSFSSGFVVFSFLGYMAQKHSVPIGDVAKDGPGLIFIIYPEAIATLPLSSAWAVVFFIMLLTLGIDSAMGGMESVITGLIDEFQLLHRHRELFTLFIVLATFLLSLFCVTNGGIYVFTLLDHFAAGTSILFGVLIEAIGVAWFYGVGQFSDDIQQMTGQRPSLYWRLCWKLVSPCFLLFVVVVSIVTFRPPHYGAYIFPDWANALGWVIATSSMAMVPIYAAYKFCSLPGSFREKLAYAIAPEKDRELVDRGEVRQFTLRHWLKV
UniProt P08069, sequence (whole entry, looked up): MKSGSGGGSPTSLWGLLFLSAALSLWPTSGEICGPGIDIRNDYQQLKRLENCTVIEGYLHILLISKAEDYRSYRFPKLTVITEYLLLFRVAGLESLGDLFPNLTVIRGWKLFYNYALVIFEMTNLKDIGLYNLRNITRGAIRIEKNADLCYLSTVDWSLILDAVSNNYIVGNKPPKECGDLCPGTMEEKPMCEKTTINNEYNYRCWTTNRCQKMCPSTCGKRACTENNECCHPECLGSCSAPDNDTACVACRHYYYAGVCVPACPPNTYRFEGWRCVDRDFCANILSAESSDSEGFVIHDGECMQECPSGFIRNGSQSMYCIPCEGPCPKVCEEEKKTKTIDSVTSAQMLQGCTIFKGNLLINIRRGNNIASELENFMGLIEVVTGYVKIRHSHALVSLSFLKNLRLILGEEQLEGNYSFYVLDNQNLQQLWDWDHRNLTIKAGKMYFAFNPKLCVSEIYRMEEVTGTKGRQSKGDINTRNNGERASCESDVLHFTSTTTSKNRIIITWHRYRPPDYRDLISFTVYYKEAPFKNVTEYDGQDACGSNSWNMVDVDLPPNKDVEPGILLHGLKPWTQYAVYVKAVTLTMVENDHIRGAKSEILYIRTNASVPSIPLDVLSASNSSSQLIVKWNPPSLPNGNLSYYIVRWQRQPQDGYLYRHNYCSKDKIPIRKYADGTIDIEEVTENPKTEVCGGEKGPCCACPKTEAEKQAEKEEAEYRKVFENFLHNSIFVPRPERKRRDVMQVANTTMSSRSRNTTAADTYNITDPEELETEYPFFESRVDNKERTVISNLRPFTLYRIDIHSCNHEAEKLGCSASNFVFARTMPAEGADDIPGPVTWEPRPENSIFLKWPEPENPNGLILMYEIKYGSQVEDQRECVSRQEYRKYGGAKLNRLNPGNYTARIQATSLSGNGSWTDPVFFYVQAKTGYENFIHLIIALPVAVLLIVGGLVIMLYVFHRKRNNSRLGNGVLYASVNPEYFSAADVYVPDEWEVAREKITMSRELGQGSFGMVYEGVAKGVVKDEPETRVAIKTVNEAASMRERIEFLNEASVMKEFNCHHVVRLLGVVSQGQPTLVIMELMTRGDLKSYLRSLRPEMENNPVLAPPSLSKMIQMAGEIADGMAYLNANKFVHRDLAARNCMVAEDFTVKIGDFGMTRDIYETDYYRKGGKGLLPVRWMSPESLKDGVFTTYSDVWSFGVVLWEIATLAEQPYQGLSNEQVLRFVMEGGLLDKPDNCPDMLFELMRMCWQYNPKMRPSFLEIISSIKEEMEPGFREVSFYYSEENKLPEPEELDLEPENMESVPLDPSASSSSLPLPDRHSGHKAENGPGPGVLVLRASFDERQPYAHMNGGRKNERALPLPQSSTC
UniProt Q06418, sequence (whole entry, looked up): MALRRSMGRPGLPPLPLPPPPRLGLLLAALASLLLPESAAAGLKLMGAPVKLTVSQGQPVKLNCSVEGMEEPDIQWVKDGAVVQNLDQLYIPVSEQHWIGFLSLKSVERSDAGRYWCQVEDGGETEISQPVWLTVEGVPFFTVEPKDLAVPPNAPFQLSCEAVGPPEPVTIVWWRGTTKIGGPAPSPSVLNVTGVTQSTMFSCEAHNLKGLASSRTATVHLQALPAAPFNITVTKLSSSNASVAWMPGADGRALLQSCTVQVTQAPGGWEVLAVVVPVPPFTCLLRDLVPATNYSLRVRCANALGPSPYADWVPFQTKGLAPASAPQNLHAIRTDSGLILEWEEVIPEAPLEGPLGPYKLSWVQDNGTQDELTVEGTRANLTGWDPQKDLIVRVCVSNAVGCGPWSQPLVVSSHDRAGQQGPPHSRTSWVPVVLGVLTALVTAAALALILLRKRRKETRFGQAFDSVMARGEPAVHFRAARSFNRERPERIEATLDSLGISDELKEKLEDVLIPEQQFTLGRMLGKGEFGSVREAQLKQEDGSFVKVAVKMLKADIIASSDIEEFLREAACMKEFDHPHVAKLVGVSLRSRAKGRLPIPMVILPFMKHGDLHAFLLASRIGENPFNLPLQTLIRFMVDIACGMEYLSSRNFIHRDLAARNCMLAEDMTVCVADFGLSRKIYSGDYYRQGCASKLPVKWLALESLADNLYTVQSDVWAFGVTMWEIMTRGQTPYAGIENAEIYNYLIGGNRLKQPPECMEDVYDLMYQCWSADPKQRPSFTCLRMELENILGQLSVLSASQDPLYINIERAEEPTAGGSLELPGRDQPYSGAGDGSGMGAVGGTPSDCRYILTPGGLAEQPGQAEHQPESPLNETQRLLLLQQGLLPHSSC
UniProt Q05513, sequence (whole entry, looked up): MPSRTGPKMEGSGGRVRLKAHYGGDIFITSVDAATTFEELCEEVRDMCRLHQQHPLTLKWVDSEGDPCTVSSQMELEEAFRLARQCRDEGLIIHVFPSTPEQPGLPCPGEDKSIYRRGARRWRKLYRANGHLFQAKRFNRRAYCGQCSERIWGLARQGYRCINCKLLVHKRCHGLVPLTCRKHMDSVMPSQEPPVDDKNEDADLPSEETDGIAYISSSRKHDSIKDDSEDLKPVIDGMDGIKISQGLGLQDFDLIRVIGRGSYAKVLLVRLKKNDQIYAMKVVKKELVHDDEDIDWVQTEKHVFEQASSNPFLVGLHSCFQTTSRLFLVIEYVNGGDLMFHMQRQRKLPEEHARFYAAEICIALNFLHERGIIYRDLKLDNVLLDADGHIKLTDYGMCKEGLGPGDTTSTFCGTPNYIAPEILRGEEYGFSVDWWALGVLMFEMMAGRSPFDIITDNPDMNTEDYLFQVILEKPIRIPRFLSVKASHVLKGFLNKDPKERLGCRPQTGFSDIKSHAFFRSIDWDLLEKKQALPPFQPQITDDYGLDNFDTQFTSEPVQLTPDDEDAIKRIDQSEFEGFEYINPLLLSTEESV
UniProt Q00535, sequence (whole entry, looked up): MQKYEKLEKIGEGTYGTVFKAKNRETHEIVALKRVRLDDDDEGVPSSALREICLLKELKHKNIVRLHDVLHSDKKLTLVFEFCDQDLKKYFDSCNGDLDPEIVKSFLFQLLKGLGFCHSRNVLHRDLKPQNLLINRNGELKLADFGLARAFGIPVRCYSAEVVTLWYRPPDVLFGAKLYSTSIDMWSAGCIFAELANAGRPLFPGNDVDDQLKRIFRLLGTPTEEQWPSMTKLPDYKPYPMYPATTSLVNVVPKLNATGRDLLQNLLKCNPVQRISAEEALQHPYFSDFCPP
UniProt P49760, sequence (whole entry, looked up): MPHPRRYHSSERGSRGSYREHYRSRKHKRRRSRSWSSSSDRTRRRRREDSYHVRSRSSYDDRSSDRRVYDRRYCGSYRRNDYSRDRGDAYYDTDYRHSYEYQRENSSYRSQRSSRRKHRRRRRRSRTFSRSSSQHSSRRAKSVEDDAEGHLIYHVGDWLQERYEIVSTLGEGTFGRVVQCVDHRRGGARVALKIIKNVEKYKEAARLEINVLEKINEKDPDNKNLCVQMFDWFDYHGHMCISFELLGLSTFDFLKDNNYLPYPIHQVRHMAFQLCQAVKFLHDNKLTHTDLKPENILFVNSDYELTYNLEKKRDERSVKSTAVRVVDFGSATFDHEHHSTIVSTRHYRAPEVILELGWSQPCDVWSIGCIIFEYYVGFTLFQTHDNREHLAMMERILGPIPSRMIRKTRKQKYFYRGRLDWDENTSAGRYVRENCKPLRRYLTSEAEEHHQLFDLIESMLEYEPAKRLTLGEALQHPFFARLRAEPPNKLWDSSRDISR

Sample 1
Cell line: HEK-293T-ACE2-TMPRSS2
Method: cell count
Tested at: concentration not given
Compound	viability [%]
COc1cc(NC(=O)c2cnc(N3CCCCC3)c3ccccc23)cc(OC)c1OC	77
CCc1cc2c(N3CCCC(C(=O)N4CCN(c5ccccn5)CC4)C3)ncnc2s1 (centres unmarked)	65
CSc1cccc(NC(=O)Cn2c(C)cc(-c3nnc(C)o3)c2C)c1	107
COc1ccc(Cl)cc1NC(=O)Cn1c(C(=O)c2cccc(F)c2)nc2ccccc21	78
Nc1nc(NCCNc2ccccc2)cc(N2CCOCC2)n1	93
Cc1nc(-c2ccc(C)c(S(=O)(=O)N3CCC(C(=O)NC4CCCc5ccccc54)CC3)c2)no1 (centres unmarked)	66
CO[C@@H]1[C@@H](O[C@@H]2O[C@H](C)[C@@H](O[C@H]3C[C@@](C)(O)[C@@H](O)[C@H](C)O3)[C@H](N(C)C)[C@H]2O)[C@@H](CC=O)C[C@@H](C)[C@@H](O[C@H]2CC[C@H](N(C)C)[C@@H](C)O2)/C=C/C=C/C[C@@H](C)OC(=O)C[C@H]1O	77
Cc1cccc(N2CCN(C(=O)CCCn3c(C)c4cnn(-c5ccccc5)c(=O)c4c3C)CC2)c1C	76
COc1ccc(-n2c3c(cc(C(=O)NCCc4ccccc4)c2=O)C(=O)CC(C)(C)C3)cc1	71
c1ccc(-c2ncn(CCc3c[nH]cn3)c2-c2ccncc2)cc1	90
COc1ccc2cc3c(N)nn(C(=O)c4ccccc4Cl)c3nc2c1	118
CC(NCc1ccccc1)C(=O)NCC(=O)N1CCCc2ccccc21 (centres unmarked)	68
CCN(Cc1ccccc1)S(=O)(=O)c1ccc(C(=O)Nc2nc3c(s2)CN(C)CC3)cc1	66
COc1ccccc1C(=O)N1C2CCC1c1cnc(-c3ccc(F)cc3)nc1C2 (centres unmarked)	71
O=C(c1ccc(Br)cc1)N1N=CCC1(O)C(F)(F)F (centres unmarked)	256
OCC1(Cc2ccccc2F)CCCN(Cc2cnn(-c3ccccc3)c2)C1 (centres unmarked)	110
CC(=O)c1cc(CN2CCOC(Cc3ccccc3)C2)cs1 (centres unmarked)	107
c1ccc(-c2cc(CN3CCN(c4ncnc5ccccc45)CC3)on2)cc1	87
CCO[C@H]1COC[C@@H]1NC(=O)c1ccc2c(c1)nnn2C	102
CCOC(=O)N1CCN(C(=O)CCc2nnc(CCCc3ccccc3)o2)CC1	108
C=CCNC(=O)C(CCSC)NC(=O)c1ccco1 (centres unmarked)	303
COC(=O)c1sc(S(C)(=O)=O)c(C#N)c1-c1cc(C(C)(C)C)oc1C	66
COC(=O)c1ccc(NC(=O)C2CCN(c3c(C#N)cnc4ccccc34)CC2)cc1	77
COc1ccc(-c2cnc(C)o2)cc1S(=O)(=O)N1CCN(CCOc2ccc(Cl)cc2)CC1	67
Cc1ccc(NS(=O)(=O)c2ccc3[nH]c(-c4ccccc4)nc3c2)c(Br)c1	77

Sample 2
Cell line: HEK-293T/ACE2
Tested at: 10 µM
Time: 16 h
Reference: vehicle
SMILES	viability
C[C@]12CC[C@H]3[C@@H](CC[C@@]45O[C@@H]4C(O)=C(C#N)C[C@]35C)[C@@H]1CC[C@@H]2O	97.6%
CC1(C)O[C@@H]2C[C@H]3[C@@H]4CCC5=CC(=O)C=C[C@]5(C)[C@@]4(F)[C@@H](O)C[C@]3(C)[C@]2(C(=O)CO)O1	101%
Cc1cc(C)nc(NS(=O)(=O)c2ccc(N)cc2)n1	103%
C=CC[C@@H]1/C=C(\C)C[C@H](C)C[C@H](OC)[C@H]2O[C@@](O)(C(=O)C(=O)N3CCCC[C@H]3C(=O)O[C@H](/C(C)=C/[C@@H]3CC[C@@H](O)[C@H](OC)C3)[C@H](C)[C@@H](O)CC1=O)[C@H](C)C[C@@H]2OC	105%
COC1=CC(=O)C[C@@H](C)[C@]12Oc1c(Cl)c(OC)cc(OC)c1C2=O	98.8%
CCOC(=O)[C@H](CCc1ccccc1)N[C@@H](C)C(=O)N1Cc2ccccc2C[C@H]1C(=O)O	99.4%
Cc1cccc(Nc2ccncc2S(=O)(=O)NC(=O)NC(C)C)c1	101%
Nc1nc2c(ncn2COCCO)c(=O)[nH]1	101%
CCC(Cc1c(I)cc(I)c(N)c1I)C(=O)O (centres unmarked)	96.8%
CNC(=O)c1ccccc1Sc1ccc2c(/C=C/c3ccccn3)n[nH]c2c1	71.2%
Nc1ccc(S(=O)(=O)NC(=O)c2ccccc2)cc1	100%
CCc1nc(N)nc(N)c1-c1ccc(Cl)cc1	95.5%
CC[C@@H](CO)NCCN[C@@H](CC)CO	98.1%
O=C(O)c1ccc(-n2nc(-c3ccccc3O)nc2-c2ccccc2O)cc1	89.9%

Sample 3
Structure (SMILES): COc1ccc2c(c[n+](C)c3c4cc5c(cc4ccc23)OCO5)c1OC
Observed: enzyme activity
Action: inhibitor
Tested at: 0.5 µM
Reference: control
target	remaining activity [%]
Casein kinase I isoform delta (CSNK1D, Homo sapiens, UniProt P48730)	92.9
Activin receptor type-1-like (ACVRL1, Homo sapiens, UniProt P37023)	99.2
Calcium/calmodulin-dependent protein kinase kinase 1 (CAMKK1, Homo sapiens, UniProt Q8N5S9)	101
Tyrosine-protein kinase JAK2 (JAK2, Homo sapiens, UniProt O60674)	102
Serine/threonine-protein kinase PAK 5 (PAK5, Homo sapiens, UniProt Q9P286)	77.4
Cyclin-dependent kinase 5, with p35 (CDK5, Homo sapiens, UniProt Q00535)	95.7
Serine/threonine-protein kinase PAK 6 (PAK6, Homo sapiens, UniProt Q9NQU5)	96.1
Serine/threonine-protein kinase MARK1 (MARK1, Homo sapiens, UniProt Q9P0L2)	91.4
Tyrosine-protein kinase Yes (YES1, Homo sapiens, UniProt P07947)	93.8
Dual specificity tyrosine-phosphorylation-regulated kinase 1A (DYRK1A, Homo sapiens, UniProt Q13627)	103
Dual specificity protein kinase CLK1 (CLK1, Homo sapiens, UniProt P49759)	101
Protein kinase C zeta type (PRKCZ, Homo sapiens, UniProt Q05513)	97.7
Tyrosine-protein kinase receptor TYRO3 (TYRO3, Homo sapiens, UniProt Q06418)	95.7
Serine/threonine-protein kinase PAK 4 (PAK4, Homo sapiens, UniProt O96013)	99.5
Ribosomal protein S6 kinase alpha-3 (RPS6KA3, Homo sapiens, UniProt P51812)	94.6
Tyrosine-protein kinase Fes/Fps (FES, Homo sapiens, UniProt P07332)	108
Dual specificity protein kinase CLK2 (CLK2, Homo sapiens, UniProt P49760)	90.6
Tyrosine-protein kinase JAK1 (JAK1, Homo sapiens, UniProt P23458)	88.5
Calcium/calmodulin-dependent protein kinase type 1 (CAMK1, Homo sapiens, UniProt Q14012)	81.4
Tyrosine-protein kinase Tec (TEC, Homo sapiens, UniProt P42680)	116
Ribosomal protein S6 kinase beta-2 (RPS6KB2, Homo sapiens, UniProt Q9UBS0)	99.6
Insulin-like growth factor 1 receptor (IGF1R, Homo sapiens, UniProt P08069)	93.3
Receptor tyrosine-protein kinase erbB-2 (ERBB2, Homo sapiens, UniProt P04626)	101
Serine/threonine-protein kinase PAK 1 (PAK1, Homo sapiens, UniProt Q13153)	98.7
Cyclin-dependent kinase 2, with cyclin E (CDK2, Homo sapiens, UniProt P24941)	88.9

Single results of other studies
pknB: Serine/threonine-protein kinase PknB (pknB, Mycobacterium tuberculosis, UniProt P9WI81)
UniProt P9WI81, sequence (whole entry, looked up): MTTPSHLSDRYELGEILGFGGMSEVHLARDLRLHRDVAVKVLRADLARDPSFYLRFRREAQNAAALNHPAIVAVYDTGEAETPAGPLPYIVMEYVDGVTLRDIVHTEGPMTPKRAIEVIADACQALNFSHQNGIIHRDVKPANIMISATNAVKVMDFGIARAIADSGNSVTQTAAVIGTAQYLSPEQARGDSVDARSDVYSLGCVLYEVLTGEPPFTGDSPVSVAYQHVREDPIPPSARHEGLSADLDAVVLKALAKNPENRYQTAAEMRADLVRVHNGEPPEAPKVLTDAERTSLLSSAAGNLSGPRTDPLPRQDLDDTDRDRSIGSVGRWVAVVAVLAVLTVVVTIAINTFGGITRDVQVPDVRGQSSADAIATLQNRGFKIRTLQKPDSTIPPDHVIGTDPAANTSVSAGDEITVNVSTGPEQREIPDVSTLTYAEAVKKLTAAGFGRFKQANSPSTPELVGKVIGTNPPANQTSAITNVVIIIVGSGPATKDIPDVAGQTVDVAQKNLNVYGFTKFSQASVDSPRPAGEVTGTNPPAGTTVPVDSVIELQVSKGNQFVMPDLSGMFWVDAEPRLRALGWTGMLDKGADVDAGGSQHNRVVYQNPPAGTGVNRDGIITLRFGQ
SMILES	target	test	conditions	quantity	result
O=C(NS(=O)(=O)c1ccc(NCC2CCOCC2)c([N+](=O)[O-])c1)c1ccc(N2CCN(Cc3ccc(C(F)(F)F)cc3-c3ccc(Cl)cc3)CC2)cc1Oc1cnc2[nH]ccc2c1	Sodium-dependent dopamine transporter (SLC6A3, Homo sapiens, UniProt Q01959)	ligand displacement	10 µM	inhibition	-43.4%
CC(C)CC(=O)N1CCc2nc(-c3ccc(Br)cc3)nc(N(C)Cc3ccccc3)c2C1	pknB	cell-free assay, competition with immobilised ligand	0.1 µM	remaining binding	97%
O=C1NC(c2ccccn2)Sc2ccccc21 (centres unmarked)	pknB	cell-free assay, competition with immobilised ligand	1 µM	remaining binding	77%
CNC(=O)Nc1ccc2c(c1)CC[C@@]21OC(=O)N(CC(=O)N(Cc2ccc(F)cc2)[C@@H](C)C(F)(F)F)C1=O	Cyclin-dependent kinase 2 homolog (CRK2, Plasmodium falciparum, UniProt P61075)	cell-free assay, competition with immobilised ligand	1 µM	remaining binding	91%

For quick reference, copied from above (sample 1):
Compound	viability [%]
COc1ccc2cc3c(N)nn(C(=O)c4ccccc4Cl)c3nc2c1	118
CC(NCc1ccccc1)C(=O)NCC(=O)N1CCCc2ccccc21 (centres unmarked)	68
CCN(Cc1ccccc1)S(=O)(=O)c1ccc(C(=O)Nc2nc3c(s2)CN(C)CC3)cc1	66
COc1ccccc1C(=O)N1C2CCC1c1cnc(-c3ccc(F)cc3)nc1C2 (centres unmarked)	71
O=C(c1ccc(Br)cc1)N1N=CCC1(O)C(F)(F)F (centres unmarked)	256
OCC1(Cc2ccccc2F)CCCN(Cc2cnn(-c3ccccc3)c2)C1 (centres unmarked)	110
CC(=O)c1cc(CN2CCOC(Cc3ccccc3)C2)cs1 (centres unmarked)	107
c1ccc(-c2cc(CN3CCN(c4ncnc5ccccc45)CC3)on2)cc1	87
